Results pooled from the literature.
Protocols differ between the studies behind these lines.
Target: Serine/threonine-protein kinase PAK 5 (PAK5, Homo sapiens, UniProt Q9P286)
Sequence of UniProt Q9P286 (whole entry, looked up): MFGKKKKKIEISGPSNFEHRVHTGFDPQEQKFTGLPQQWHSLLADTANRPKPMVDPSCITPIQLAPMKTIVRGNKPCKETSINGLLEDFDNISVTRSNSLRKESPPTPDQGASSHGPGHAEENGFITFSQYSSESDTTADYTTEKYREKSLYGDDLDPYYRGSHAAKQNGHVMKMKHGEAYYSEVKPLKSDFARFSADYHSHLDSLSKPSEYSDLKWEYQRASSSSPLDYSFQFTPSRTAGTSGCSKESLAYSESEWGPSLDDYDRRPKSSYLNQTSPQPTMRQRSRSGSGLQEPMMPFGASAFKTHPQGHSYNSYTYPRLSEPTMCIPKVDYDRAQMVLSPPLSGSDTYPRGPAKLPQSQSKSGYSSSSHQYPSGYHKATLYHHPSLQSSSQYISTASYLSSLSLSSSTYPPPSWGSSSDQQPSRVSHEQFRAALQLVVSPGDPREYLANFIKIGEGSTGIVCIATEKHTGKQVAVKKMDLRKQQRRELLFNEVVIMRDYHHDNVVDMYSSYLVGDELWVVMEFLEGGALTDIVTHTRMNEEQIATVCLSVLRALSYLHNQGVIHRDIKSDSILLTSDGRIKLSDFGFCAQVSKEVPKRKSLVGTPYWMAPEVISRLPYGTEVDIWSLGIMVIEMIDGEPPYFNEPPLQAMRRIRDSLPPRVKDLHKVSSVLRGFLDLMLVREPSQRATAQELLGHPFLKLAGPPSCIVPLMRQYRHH

The remaining binding of C=CC(=O)N1CCC(C(=O)NCC(=O)N2CCN(c3nc(-c4cnc(N)nc4C(F)F)nc(N4CCOCC4)n3)CC2)CC1 is reported as 79% (KINOMEscan; 1 µM).
For COc1cc(F)ccc1-c1ncnc(Nc2cccc(C[S@](C)(=N)=O)c2)n1, the remaining activity was 71% (kinase activity; 10 µM, added: 10 µM ATP).
With CN(C)CC#Cc1ccc2[nH]c3c(c2c1)-c1nc(N)ncc1CCC3 the remaining activity was 89% (kinase activity, inhibitor, radiometric; 1 µM, added: ATP at Km).
For C=CC(=O)N1CCC(COCC(=O)N2CCN(c3nc(-c4cnc(N)nc4C(F)F)nc(N4CCOC[C@@H]4C)n3)CC2)CC1, the remaining binding was 84% (KINOMEscan; 1 µM).
O=C1NC(=O)/C(=C/c2ccc(-c3ccc(F)cc3O)o2)S1 has a remaining activity of 49% (enzyme activity; 10 µM).
With COc1cc(-c2cncc3c2CN(C)Cc2cc(N4CCNCC4)ccc2-3)cc(OC)c1OC the remaining activity was 112% (kinase activity; 1 µM, human enzyme, added: ATP 10 µM; relative to: DMSO control).
Under “remaining kinase activity”, COCCNc1nc2ccc(C#CC3(O)CCCCC3)cc2n1-c1ccnc(N)n1 is recorded as 75.1% (enzyme activity, inhibitor, Z'-LYTE; 1 µM; relative to: no-inhibitor control).
Cc1cc(Nc2cc(N3CCN(C)CC3)nc(Sc3ccc(NC(=O)C4CC4)cc3)n2)[nH]n1 has a remaining activity of 109% (kinase activity, KinaseProfiler; 0.03 µM, species human; relative to: control).
